Published values of several laboratories.
Parts stem from different laboratories: compare values within a part only.

Set 1 — method: RNA Bind-n-Seq; molecule type: RNA; matrix: in vitro; tested at: 20 nM; notes: 6-mer, flanks averaged, single round; together with: 150 mM KCl; reference: input library; reading: higher = stronger binding; measurement: 6-mer enrichment (R)
Target: TAR DNA-binding protein 43, full length, His tag (TARDBP, Homo sapiens, UniProt Q13148, residues 1-414)
GCAGCG: 1.86
AACCUG: 0.656
CUUACA: 0.578
UAUCCC: 0.594
AAGACA: 0.672
UGCAGU: 0.833
ACUGAC: 0.656
GUCGUA: 0.781

Set 2 — method: competition protein-binding microarray; molecule type: double-stranded DNA, one strand shown; matrix: in vitro; tested at: 2 µM; together with: Pho4 competitor, 0.05 µM; reading: higher = stronger binding; measurement: fluorescence intensity
Target: Centromere-binding protein 1, full length, His-tagged (CBF1, Saccharomyces cerevisiae, UniProt P17106, residues 1-351)
UniProt P17106, sequence (whole entry, looked up): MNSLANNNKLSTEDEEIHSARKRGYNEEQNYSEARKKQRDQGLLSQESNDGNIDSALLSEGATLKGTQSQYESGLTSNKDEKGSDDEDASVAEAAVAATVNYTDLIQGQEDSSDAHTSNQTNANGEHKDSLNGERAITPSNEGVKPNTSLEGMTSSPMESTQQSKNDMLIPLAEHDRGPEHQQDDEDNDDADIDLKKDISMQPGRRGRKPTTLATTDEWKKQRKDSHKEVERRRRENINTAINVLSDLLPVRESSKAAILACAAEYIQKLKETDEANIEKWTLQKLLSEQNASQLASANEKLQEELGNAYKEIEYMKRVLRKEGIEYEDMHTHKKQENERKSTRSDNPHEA
Notes: whole 60-bp probe, lowest competitor level
AAAGCGGTAATTTGCGTAGTGGGTGCAGATATCTATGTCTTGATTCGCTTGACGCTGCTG: 84.4 a.u.
GTAAAAAATAGCATTTGCGTGCTTTAGTGAAATTTTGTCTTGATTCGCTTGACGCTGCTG: 82 a.u.
AAATTACTAAGTTGTCACTCTACTTACCCCGTATGAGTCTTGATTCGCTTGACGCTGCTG: 77.3 a.u.
TTGTTTCCTGGGAACTACGTGCAAATCAACAAGAAAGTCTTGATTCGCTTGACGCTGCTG: 78.1 a.u.
GTCTTGTCTCATTGAGTTGTGGGTGTCCCCACTTCAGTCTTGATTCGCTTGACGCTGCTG: 95.9 a.u.
CAGCGCTAAGGACATGCCGTGATGGCATCAACCGGCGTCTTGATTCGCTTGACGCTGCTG: 60.5 a.u.
TTTTTCATGTAAGGCCACATGATTCAGACTTACATCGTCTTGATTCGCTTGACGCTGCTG: 289 a.u.
TCGTCGATGAAGCTGAACGTGCAAAGCTGGACTTACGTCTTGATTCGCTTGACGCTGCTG: 83.8 a.u.

Set 3 — partner: H2AC6 (Homo sapiens, UniProt Q93077); method: cross-linking MS; notes: hits only; measurement: interaction screen
H2AC20 (Homo sapiens, UniProt Q16777): cross-linked
H2BC11 (Homo sapiens, UniProt P06899): cross-linked
H2BC17 (Homo sapiens, UniProt P23527): cross-linked

Other studies, line by line
CC(Oc1ccc(F)cc1Br)C(=O)NCC(C)c1ccncc1 (centres unmarked) — remaining compound (human, microsomes or S9; 2 µM, 0.5 h): 9.84%

Repeated from above (set 1):
CUUACA: 0.578
UGCAGU: 0.833
